{"data": "Measurements collected from several papers", "note": "Protocols differ between the studies behind these lines. Several values in a cell are separate wells, animals, samples, runs or records."}
{"Compound": "O=c1[nH]cc(C(c2ccc(Cl)cc2)c2c[nH]c(=O)[nH]c2=O)c(=O)[nH]1", "organism": "HIV-1 subtype C", "test": "p24 antigen production, p24 ELISA", "conditions": "500 µg/mL", "measurement": "inhibition", "value": "83%"}
{"Compound": "COc1ccc(CNc2nc([C@H]3CC[C@H](C(=O)O)CC3)nc3sc4ccccc4c23)cc1Cl", "organism": "Cryptosporidium parvum", "test": "parasite growth, immunofluorescence imaging", "test system": "HCT-8, Iowa", "conditions": "74.1 nM", "measurement": "inhibition", "value": "-21.8% and -13.6%"}
{"Compound": "CN(C)CCCSC(=S)N1CCN(C(=O)/C=C/c2coc3ccccc3c2=O)CC1", "organism": "CMV", "test": "virus inactivation", "conditions": "500 µg/mL", "measurement": "inhibition", "value": "71% and 80% and 79%"}
{"Compound": "CC(O)CNCC(C)O.O=C(O)C(Cl)Cl (centres unmarked)", "organism": "Chenopodium album", "test": "herbicidal activity", "conditions": "15 mg/mL, 21 days, post-emergence greenhouse", "measurement": "inhibition", "value": "0%"}
{"Compound": "CN(C)CCCN(C(=O)c1nc2ccccc2s1)c1nc2ccc(F)cc2s1", "organism": "Trypanosoma cruzi", "test": "reporter mRNA translation, inhibitor, measured: Renilla luciferase mRNA", "test system": "cell-free extract", "conditions": "concentration not given, test 2", "how to read": "relative to: positive over negative control", "measurement": "translation activity", "value": "99.2%"}
{"Compound": "O=C1C(=O)c2[nH]cc3c2C(=C1Cl)NCC3", "organism": "Saccharomyces cerevisiae", "test": "cell growth, liquid culture", "test system": "BY4741", "conditions": "100 µM, 24 h", "measurement": "inhibition", "value": "0%"}
{"Compound": "Cc1ccccc1C(c1c[nH]c(=O)[nH]c1=O)c1c[nH]c(=O)[nH]c1=O", "organism": "HIV-1 subtype C", "test": "p24 antigen production, p24 ELISA", "conditions": "7.8 µg/mL", "measurement": "inhibition", "value": "< 25%"}
{"Compound": "C[N+](C)(C)CCO.O=C([O-])C(Cl)Cl", "organism": "Chenopodium album", "test": "herbicidal activity", "conditions": "15 mg/mL, 21 days, pre-emergence greenhouse", "measurement": "inhibition", "value": "0%"}
{"Compound": "O=c1[nH]cc(C(c2cccc(Cl)c2)c2c[nH]c(=O)[nH]c2=O)c(=O)[nH]1", "organism": "HIV-1 subtype C", "test": "p24 antigen production, p24 ELISA", "conditions": "1000 µg/mL", "measurement": "inhibition", "value": "93%"}
{"Compound": "O=C(C1CCCN(Cc2ccc(Cl)cc2)C1)N1CCCCC1.O=C(O)C(=O)O (centres unmarked)", "organism": "Trypanosoma cruzi", "test": "reporter mRNA translation, inhibitor, measured: Renilla luciferase mRNA", "test system": "cell-free extract", "conditions": "concentration not given, test 1", "how to read": "relative to: positive over negative control", "measurement": "translation activity", "value": "106% and 91.8%"}
{"Compound": "CCCCNCCO.O=C(O)C(Cl)Cl", "organism": "Chenopodium album", "test": "herbicidal activity", "conditions": "15 mg/mL, 21 days, post-emergence greenhouse", "measurement": "inhibition", "value": "0%"}
